Published values from different studies.
Lines come from different studies, so protocols differ.

Compound	cell line	assay	conditions	EC50 [nM]
FC(F)(F)c1ccnc(-c2cc(C(F)(F)F)ccn2)c1.FC(F)(F)c1ccnc(-c2cc(C(F)(F)F)ccn2)c1.[Cl-].[Cl-].[Ru+2].c1csc(-c2ccc(-c3ccc(-c4nc5c6cccnc6c6ncccc6c5[nH]4)s3)s2)c1	SK-MEL-28	cell viability, resazurin	visible light, normoxia, mean replicates	440
O=c1c(-c2cnn(-c3ccccc3)c2)c(C(F)(F)F)oc2c(O)c(O)ccc12	breast, liver, lung tumour lines	cytotoxicity, annexin V	–	> 100000
C=C1[C@H](O)CC(=C/C=C2\CCC[C@]3(C)[C@@H]([C@H](C)CCCC)CC[C@@H]23)C[C@H]1O	rat osteosarcoma cells	reporter gene, activator, luciferase, measured: CYP24A1 (24-hydroxylase) promoter	50% increase	40
FC(F)(F)c1ccnc(-c2cc(C(F)(F)F)ccn2)c1.FC(F)(F)c1ccnc(-c2cc(C(F)(F)F)ccn2)c1.[Cl-].[Cl-].[Ru+2].c1csc(-c2ccc(-c3ccc(-c4ccc(-c5nc6c7cccnc7c7ncccc7c6[nH]5)s4)s3)s2)c1	SK-MEL-28	cell viability	normoxia, with: red light 633 nm	2200
C(=C/c1ccccc1)/c1ccccc1	KG-1a	apoptosis, Hoechst nuclear staining	24 h	350000
CC(C)c1cnc(-c2cc(Cl)ccc2F)cc1Nc1ccncc1C(=O)NC(CO)CO	expanded human pan T cells	reversal of IL-2 suppression	with: TGF-beta	31
Cc1sc2c(c1C)C(c1ccc(Cl)cc1)=N[C@@H](CC(=O)NCC(=O)N1CCC3(CCC(C(=O)N4CCN(C(=O)c5cc(Cc6n[nH]c(=O)c7ccccc67)ccc5F)CC4)CC3)CC1)c1nnc(C)n1-2	SU-DHL-5	cell growth or viability, ATP luminescence	72 h	0.78
CSCc1ccccn1.F[P-](F)(F)(F)(F)F.F[P-](F)(F)(F)(F)F.[Ru+2].c1ccc(-c2ccccn2)nc1.c1ccc(-c2ccnc3c2ccc2c(-c4ccccc4)ccnc23)cc1	A549 spheroids	viability, CellTiter-Glo 3D	dark	173000
O=c1c(-c2ccccc2)c[nH]n1-c1ccccn1	A549 HRE-luciferase reporter	HIF reporter gene, activator	–	5900
C=C1[C@H](O)CC(=C/C=C2\CCC[C@]3(C)[C@@H]([C@H](C)CCCCO)CC[C@@H]23)C[C@H]1O	rat osteosarcoma cells	reporter gene, activator, luciferase, measured: CYP24A1 (24-hydroxylase) promoter	50% increase	4
O=c1c(-n2ccnc2)c[nH]n1-c1ccccn1	A549 HRE-luciferase reporter	HIF reporter gene, activator	–	> 20000
CCCC[C@@H](C)[C@H]1CC[C@H]2/C(=C/C=C3C[C@@H](O)C(C)[C@H](O)C3)CCC[C@]12C (stereo partly shown)	rat osteosarcoma cells	reporter gene, activator, luciferase, measured: CYP24A1 (24-hydroxylase) promoter	50% increase	50
Cc1cc(Nc2ccc(NC(=O)c3ccc(Nc4cc(C)nc(N)n4)cc3)cc2)nc(N)n1	KG-1	cell proliferation	3 days, 15 % fetal calf serum	> 10000

Some of these lines once more:
Compound	cell line	assay	conditions	EC50 [nM]
CSCc1ccccn1.F[P-](F)(F)(F)(F)F.F[P-](F)(F)(F)(F)F.[Ru+2].c1ccc(-c2ccccn2)nc1.c1ccc(-c2ccnc3c2ccc2c(-c4ccccc4)ccnc23)cc1	A549 spheroids	viability, CellTiter-Glo 3D	dark	173000
O=c1c(-c2ccccc2)c[nH]n1-c1ccccn1	A549 HRE-luciferase reporter	HIF reporter gene, activator	–	5900
